Measurements from different studies.
Each numbered part is a random draw from the data of one study; scales do not carry over between parts.
Chain of UniProt Q8NEV4 (whole entry, looked up): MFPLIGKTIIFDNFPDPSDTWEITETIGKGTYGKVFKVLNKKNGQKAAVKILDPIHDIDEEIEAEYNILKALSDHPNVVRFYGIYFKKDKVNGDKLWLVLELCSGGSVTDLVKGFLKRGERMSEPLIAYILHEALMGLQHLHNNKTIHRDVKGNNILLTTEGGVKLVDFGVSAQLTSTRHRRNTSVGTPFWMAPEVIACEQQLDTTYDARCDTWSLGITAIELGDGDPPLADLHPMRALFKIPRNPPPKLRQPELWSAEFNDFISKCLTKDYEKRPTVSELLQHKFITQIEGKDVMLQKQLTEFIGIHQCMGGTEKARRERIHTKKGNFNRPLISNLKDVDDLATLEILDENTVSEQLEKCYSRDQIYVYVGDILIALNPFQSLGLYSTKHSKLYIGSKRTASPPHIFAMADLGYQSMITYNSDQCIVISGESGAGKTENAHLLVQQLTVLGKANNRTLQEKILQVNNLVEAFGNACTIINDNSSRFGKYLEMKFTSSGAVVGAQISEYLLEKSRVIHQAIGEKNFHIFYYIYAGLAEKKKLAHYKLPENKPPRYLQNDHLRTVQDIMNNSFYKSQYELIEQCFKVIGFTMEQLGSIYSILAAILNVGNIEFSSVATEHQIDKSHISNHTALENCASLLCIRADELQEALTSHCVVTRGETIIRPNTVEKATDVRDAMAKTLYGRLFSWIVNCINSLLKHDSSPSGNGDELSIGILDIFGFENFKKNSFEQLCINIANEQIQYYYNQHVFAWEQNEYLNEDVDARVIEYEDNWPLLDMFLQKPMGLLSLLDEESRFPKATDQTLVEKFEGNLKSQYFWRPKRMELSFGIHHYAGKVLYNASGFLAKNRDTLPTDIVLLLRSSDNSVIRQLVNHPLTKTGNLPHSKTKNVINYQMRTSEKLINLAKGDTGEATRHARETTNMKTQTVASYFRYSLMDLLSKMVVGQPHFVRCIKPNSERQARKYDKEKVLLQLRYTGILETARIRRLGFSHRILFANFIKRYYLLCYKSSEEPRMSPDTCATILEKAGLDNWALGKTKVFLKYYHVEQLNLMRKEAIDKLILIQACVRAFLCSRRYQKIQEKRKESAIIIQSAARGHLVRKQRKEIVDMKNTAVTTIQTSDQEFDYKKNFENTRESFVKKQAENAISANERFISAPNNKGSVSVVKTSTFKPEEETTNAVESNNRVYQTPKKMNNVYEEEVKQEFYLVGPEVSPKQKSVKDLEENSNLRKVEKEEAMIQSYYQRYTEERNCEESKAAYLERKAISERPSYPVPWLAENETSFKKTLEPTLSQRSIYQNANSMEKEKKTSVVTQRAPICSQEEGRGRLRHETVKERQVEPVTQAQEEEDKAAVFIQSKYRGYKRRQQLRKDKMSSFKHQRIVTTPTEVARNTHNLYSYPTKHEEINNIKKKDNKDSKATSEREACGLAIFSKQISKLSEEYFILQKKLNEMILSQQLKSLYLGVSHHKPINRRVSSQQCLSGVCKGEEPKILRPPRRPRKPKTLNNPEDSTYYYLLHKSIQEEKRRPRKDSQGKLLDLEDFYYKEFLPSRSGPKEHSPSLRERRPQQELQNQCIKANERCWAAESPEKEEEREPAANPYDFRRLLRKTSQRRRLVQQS
Chain of UniProt Q06418 (whole entry, looked up): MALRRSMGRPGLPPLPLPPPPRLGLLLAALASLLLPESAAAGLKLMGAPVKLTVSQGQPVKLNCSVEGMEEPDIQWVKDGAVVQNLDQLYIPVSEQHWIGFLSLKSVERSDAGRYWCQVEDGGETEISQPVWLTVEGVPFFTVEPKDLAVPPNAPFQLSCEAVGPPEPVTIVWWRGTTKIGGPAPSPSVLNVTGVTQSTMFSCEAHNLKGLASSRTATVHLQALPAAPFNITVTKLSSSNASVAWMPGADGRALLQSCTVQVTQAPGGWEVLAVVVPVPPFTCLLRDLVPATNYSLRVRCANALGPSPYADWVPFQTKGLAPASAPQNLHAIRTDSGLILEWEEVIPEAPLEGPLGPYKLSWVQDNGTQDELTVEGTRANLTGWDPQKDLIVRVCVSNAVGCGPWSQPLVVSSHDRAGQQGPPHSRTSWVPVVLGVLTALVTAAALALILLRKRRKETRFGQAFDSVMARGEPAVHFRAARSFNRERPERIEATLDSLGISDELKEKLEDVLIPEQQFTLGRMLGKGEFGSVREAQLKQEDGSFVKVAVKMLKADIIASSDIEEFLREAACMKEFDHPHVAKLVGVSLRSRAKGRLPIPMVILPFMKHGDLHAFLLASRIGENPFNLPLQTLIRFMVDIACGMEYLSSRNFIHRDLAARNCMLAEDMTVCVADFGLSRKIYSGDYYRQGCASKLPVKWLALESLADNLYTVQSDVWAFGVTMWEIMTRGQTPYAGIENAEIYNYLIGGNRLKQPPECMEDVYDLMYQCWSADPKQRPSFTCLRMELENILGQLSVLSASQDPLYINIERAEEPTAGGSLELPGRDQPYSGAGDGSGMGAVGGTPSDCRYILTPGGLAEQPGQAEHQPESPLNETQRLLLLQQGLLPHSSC
Chain of UniProt Q13555 (whole entry, looked up): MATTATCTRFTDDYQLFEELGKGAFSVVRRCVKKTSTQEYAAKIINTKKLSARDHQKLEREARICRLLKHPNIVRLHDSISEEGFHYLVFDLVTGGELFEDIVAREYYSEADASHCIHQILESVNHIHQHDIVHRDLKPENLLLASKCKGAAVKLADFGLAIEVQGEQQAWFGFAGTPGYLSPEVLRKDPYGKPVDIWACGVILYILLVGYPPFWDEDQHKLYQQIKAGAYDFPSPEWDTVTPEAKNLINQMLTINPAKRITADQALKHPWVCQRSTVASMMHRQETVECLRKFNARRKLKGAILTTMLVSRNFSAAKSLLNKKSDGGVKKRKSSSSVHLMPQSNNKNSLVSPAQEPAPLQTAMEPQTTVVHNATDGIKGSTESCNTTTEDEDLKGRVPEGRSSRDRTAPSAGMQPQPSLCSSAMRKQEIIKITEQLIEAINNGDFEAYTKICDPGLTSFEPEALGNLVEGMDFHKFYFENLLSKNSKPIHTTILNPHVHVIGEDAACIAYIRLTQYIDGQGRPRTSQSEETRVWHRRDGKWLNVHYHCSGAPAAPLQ
Chain of UniProt P51956 (whole entry, looked up): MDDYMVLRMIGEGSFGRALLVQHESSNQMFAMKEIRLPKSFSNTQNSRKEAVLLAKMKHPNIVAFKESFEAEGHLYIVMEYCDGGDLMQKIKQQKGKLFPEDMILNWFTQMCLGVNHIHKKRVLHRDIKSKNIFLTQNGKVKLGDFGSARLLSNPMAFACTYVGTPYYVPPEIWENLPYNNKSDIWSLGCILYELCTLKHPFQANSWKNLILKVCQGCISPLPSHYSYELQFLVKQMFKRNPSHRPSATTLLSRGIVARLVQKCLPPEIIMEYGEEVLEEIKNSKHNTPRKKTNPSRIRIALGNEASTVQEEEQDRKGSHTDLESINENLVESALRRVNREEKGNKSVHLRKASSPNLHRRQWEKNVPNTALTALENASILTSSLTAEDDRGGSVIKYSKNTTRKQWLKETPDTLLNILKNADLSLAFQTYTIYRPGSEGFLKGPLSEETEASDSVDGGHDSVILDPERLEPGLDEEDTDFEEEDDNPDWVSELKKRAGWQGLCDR

Sample 1
Cell line: 451Lu
Structure (SMILES)	IC50
Fc1ccc([C@@H]2CCNC[C@H]2COc2ccc3c(c2)OCO3)cc1	24.3 µM
OCCOCCN1CCN(C(c2ccccc2)c2ccc(Cl)cc2)CC1 (stereo not shown)	93.3 µM
COCC(=O)O[C@]1(CCN(C)CCCc2nc3ccccc3[nH]2)CCc2cc(F)ccc2[C@@H]1C(C)C	19.2 µM
CCN(CC)CCCC(C)Nc1c2ccc(Cl)cc2nc2ccc(OC)cc12 (stereo not shown)	44.2 µM
CC(NCCC(c1ccccc1)c1ccccc1)c1ccccc1 (stereo not shown)	37 µM
CNCCCC1c2ccccc2C=Cc2ccccc21	50.8 µM

Sample 2
Target: Rho-associated protein kinase 2 (ROCK2, Homo sapiens, UniProt O75116)
Chain of UniProt O75116 (whole entry, looked up): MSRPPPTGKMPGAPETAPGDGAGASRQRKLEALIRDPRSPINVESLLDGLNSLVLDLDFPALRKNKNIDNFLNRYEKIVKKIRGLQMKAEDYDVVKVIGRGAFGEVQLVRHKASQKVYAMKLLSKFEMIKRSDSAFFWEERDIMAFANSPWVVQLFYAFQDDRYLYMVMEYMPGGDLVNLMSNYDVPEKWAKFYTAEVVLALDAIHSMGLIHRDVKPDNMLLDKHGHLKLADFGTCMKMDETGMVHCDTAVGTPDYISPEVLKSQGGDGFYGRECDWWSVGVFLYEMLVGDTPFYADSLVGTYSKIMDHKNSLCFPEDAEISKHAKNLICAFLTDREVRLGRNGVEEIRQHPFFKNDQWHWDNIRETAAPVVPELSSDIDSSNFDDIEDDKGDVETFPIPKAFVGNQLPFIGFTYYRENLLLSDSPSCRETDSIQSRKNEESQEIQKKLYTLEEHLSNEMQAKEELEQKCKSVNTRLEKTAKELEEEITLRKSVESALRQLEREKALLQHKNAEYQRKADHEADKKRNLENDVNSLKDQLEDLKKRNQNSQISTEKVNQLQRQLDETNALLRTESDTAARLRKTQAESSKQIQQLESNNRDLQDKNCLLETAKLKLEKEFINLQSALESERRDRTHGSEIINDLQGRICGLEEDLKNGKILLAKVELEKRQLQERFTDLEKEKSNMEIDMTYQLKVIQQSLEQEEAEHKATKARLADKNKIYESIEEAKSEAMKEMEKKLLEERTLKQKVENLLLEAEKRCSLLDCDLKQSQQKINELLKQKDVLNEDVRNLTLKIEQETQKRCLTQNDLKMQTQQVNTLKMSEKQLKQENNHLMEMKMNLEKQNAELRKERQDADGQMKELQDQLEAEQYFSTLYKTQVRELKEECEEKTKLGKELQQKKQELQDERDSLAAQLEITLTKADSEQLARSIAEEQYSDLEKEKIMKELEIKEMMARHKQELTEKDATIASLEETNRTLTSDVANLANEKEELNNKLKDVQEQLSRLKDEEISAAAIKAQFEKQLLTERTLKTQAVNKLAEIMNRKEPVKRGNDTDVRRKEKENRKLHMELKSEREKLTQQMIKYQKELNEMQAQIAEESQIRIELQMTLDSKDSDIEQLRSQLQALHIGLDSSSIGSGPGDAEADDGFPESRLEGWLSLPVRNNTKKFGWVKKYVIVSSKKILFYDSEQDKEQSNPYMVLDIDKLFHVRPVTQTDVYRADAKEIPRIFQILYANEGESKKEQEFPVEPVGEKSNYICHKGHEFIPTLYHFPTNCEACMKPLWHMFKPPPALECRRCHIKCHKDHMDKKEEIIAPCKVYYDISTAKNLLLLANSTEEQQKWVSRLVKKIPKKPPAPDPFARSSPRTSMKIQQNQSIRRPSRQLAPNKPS
Observed: enzyme activity
Action: inhibitor
Tested at: 0.5 µM
Baseline: control
Compound	remaining activity [%]
O=c1c2ccccc2[nH]c(=S)n1CCN1CCC(=C(c2ccc(F)cc2)c2ccc(F)cc2)CC1	98.8
COc1ccc(CNC(=O)Nc2ncc([N+](=O)[O-])s2)cc1	99.8
Cc1nc(-c2ccccc2)c(-c2ccncc2)o1	97.6
OCC(O)CCON=C1C(c2c(O)[nH]c3ccccc23)=Nc2ccccc21 (stereo not shown)	91
Cn1sc(=O)n(Cc2ccccc2)c1=O	88.8
COc1ccc(C(=O)Nc2sc3c(c2C(N)=O)CCCC3)cc1OC	92.3
O=C(Nc1cccc(Nc2cc(Nc3cccc(C(F)(F)F)c3)ncn2)c1)C1CC1	99.2
O=C1NC(=O)C(c2cn(CCCn3ccnc3)c3ccccc23)=C1Nc1ccccc1	100
CNC(=O)c1cc(Oc2ccc(NC(=O)Nc3ccc(Cl)c(C(F)(F)F)c3)cc2)ccn1	101
NCCNc1ncc(C(N)=O)c(Nc2cccc(C(F)(F)F)c2)n1	69.6
Cc1ccc(Nc2nccc(N(C)c3ccc4c(C)n(C)nc4c3)n2)cc1S(N)(=O)=O	91.1
COc1cc2ncnc(Nc3ccc(Oc4ccccc4)cc3)c2cc1OC	99.3
COc1ccc(OC)c2c(=S)c3ccccc3[nH]c12	90.4
O=C1NC(=O)C(c2cn(CCCO)c3ncccc23)=C1c1cnccn1	96
N#CC(C#N)=C(N)/C(C#N)=C/c1ccc(O)cc1	98.3

Sample 3
Structure (SMILES): Cc1cc(C)c(-n2ccn3nc(-c4cccnc4)cc23)cc1NC(=O)c1cc(C#N)cc(S(F)(F)(F)(F)F)c1
Method: competition with immobilised ligand
Tested at: 0.1 µM
target	observed	remaining binding [%]
Serine/threonine-protein kinase PAK 5 (PAK5, Homo sapiens, UniProt Q9P286)	cell-free assay	83.5
Tyrosine-protein kinase receptor TYRO3 (TYRO3, Homo sapiens, UniProt Q06418)	cell-free assay	72.4
Serine/threonine-protein kinase WNK1 (WNK1, Homo sapiens, UniProt Q9H4A3)	cell-free assay	97.3
Myosin-IIIa (MYO3A, Homo sapiens, UniProt Q8NEV4)	binding	94.9
Casein kinase I isoform gamma-1 (CSNK1G1, Homo sapiens, UniProt Q9HCP0)	cell-free assay	91.1
Serine/threonine-protein kinase Nek3 (NEK3, Homo sapiens, UniProt P51956)	cell-free assay	70.7
Protein-tyrosine kinase 2-beta (PTK2B, Homo sapiens, UniProt Q14289)	cell-free assay	81.4
Tyrosine-protein kinase Yes (YES1, Homo sapiens, UniProt P07947)	cell-free assay	70.7

Further values, each from its own experiment
Action: inhibitor
Compound	target	observed	method	tested at	baseline	measurement	result
Cc1cc(-c2ccc(/N=N/c3ccc4c(S(=O)(=O)O)cc(S(=O)(=O)O)c(N)c4c3O)c(C)c2)ccc1/N=N/c1ccc2c(S(=O)(=O)O)cc(S(=O)(=O)O)c(N)c2c1O	Calcium/calmodulin-dependent protein kinase type II subunit gamma (CAMK2G, Homo sapiens, UniProt Q13555)	enzyme activity	–	–	–	IC50	0.971 µM
C=C1C(=O)O[C@@H]2[C@H]3O[C@]3(C)CC/C=C(\C)CC[C@@H]12	DNA polymerase theta, ATPase domain (POLQ, Homo sapiens, UniProt O75417)	ssDNA-stimulated ATPase activity	ADP-Glo luminescence	77 µM	DMSO	remaining activity	124%

Repeated from above (sample 3):
target	observed	remaining binding [%]
Casein kinase I isoform gamma-1 (CSNK1G1, Homo sapiens, UniProt Q9HCP0)	cell-free assay	91.1
Serine/threonine-protein kinase PAK 5 (PAK5, Homo sapiens, UniProt Q9P286)	cell-free assay	83.5
Myosin-IIIa (MYO3A, Homo sapiens, UniProt Q8NEV4)	binding	94.9
